Results pooled from the literature.
Each numbered part is a random draw from the data of one study; scales do not carry over between parts.

Study 1
Target: Sal-like protein 4, full length isoform B (SALL4, Homo sapiens, UniProt Q9UJQ4-2, residues 1-616)
Technique: universal PBM
Molecule type: double-stranded DNA, one strand shown
Matrix: in vitro
Concentration: not given
Setting: 8-mer, flanks averaged, mean of replicates
Direction: higher = stronger binding
For `CGACAGCC`, the E-score was -0.175.
For `CCCTTTAA`, the E-score was -0.00227.
For `CGAAAAAC`, the E-score was 0.023.
`GAATGCGC` gave an E-score of -0.0875.
`AACAATCG` gave an E-score of 0.00789.
`CCCAAGTC` gave an E-score of -0.224.
`CGATCCTA` has an E-score of -0.0985.
`ATGCTTAC` gave an E-score of 0.0752.
With `AGTTGTAC` the E-score was 0.131.
`CAAACGAC` gave an E-score of -0.0236.
For `GGAGCAGA`, the E-score was -0.0928.
For `AATTCCTG`, the E-score was 0.0853.
`AGTACAAC` gave an E-score of 0.128.
For `GTGTCAGA`, the E-score was -0.0431.
`AAGCCTAT` has an E-score of 0.161.
`ATGTCACC` has an E-score of -0.0223.
For `CTATCGGC`, the E-score was -0.0932.
`CGTTACTA` gave an E-score of 0.189.
`CCGTTCAC` gave an E-score of -0.186.
With `ACAGGCAG` the E-score was -0.0626.
For `ACGTATCT`, the E-score was 0.0281.
`AACGACAG` gave an E-score of -0.0529.
With `GCAGCTCC` the E-score was -0.312.
The E-score of `CGAGAAGA` is reported as -0.00311.
With `GCTCCGAA` the E-score was -0.0107.

Study 2
Target: Centromere-binding protein 1, full length, His-tagged (CBF1, Saccharomyces cerevisiae, UniProt P17106, residues 1-351)
UniProt P17106, sequence (whole entry, looked up): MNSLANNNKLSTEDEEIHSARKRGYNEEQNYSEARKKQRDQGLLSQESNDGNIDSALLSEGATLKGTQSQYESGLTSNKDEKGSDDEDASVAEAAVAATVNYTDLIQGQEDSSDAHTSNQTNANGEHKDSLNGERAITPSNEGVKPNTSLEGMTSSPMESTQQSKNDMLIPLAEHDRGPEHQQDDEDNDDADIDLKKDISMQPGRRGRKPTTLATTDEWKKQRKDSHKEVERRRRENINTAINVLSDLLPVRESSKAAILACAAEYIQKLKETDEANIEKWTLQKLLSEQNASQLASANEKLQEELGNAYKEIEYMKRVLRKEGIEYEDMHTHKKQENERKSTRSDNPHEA
Technique: competition protein-binding microarray
Molecule type: double-stranded DNA, one strand shown
Matrix: in vitro
Concentration: 2 µM
Setting: whole 60-bp probe, lowest competitor level
Together with: Pho4 competitor, 0.05 µM
Direction: higher = stronger binding
The fluorescence intensity of `AAAGCGGTAATTTGGATTGTGGGTGCAGATATCTATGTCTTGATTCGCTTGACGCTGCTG` is reported as 83.3 a.u.
The fluorescence intensity of `TGCGCAACAACTTTTCACGTGGTCTTATGTCTAGAAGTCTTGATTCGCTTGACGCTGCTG` is reported as 1280 a.u.
`TTGATCTTGCCAAGTCTCGTGGTGAACTATCCATTTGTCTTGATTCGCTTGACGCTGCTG` gave a fluorescence intensity of 158 a.u.
`CTAACGAAGGTTTTTCACGTGCAATACAAGCCAAGTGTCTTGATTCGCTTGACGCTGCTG` gave a fluorescence intensity of 1080 a.u.
The fluorescence intensity of `CTTTCCCGATCTTGAGTAGTGGGTGTAGCACATTTGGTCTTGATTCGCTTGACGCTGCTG` is reported as 69.2 a.u.
`AAAGCGGTAATTTGGATCGTGGGTGCAGATATCTATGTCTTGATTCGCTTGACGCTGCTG` gave a fluorescence intensity of 71.5 a.u.
For `TGCAAGTTAAAGCGGTCCGTGCCAGATTGGACGAGTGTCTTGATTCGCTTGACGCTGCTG`, the fluorescence intensity was 70.3 a.u.
For `AGCCCGGCCGCTCACCACGTGCTCTCTGTTGTTGCTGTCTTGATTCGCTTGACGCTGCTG`, the fluorescence intensity was 1490 a.u.
`ATTACAGAAGAACCCCTCGTGACGGCTGGATTACTGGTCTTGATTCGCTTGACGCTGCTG` gave a fluorescence intensity of 330 a.u.
With `ACATATAGTTTTTTGCACGTGATGGAACTTCTAAGTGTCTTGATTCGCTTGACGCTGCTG` the fluorescence intensity was 4640 a.u.
For `CGCAGGGAGCCTGGCCACATGGGAGGGGTGTGGTCCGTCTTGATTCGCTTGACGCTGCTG`, the fluorescence intensity was 62.1 a.u.
For `GCAATCGATAACAGGGACGTGCGATGCTAATGTAATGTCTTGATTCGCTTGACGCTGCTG`, the fluorescence intensity was 72.3 a.u.
`AGCGAGCCGGCGGCAATCGTGGGACGCGATGGCACTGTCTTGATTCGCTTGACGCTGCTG` gave a fluorescence intensity of 64 a.u.
`CATACCCAACCTTGAAAAGTGGGTGAAGATATTTGTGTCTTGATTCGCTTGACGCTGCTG` gave a fluorescence intensity of 77.4 a.u.
`AGAAACGAAACAAATCATGTGTTACCCGTCCTGGACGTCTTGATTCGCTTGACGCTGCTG` has a fluorescence intensity of 295 a.u.
With `CGTCCTAGCGATTGAGCAGTGGGTGCCATGAGGAAGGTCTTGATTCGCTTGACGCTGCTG` the fluorescence intensity was 61 a.u.

Study 3
Target: RNA binding protein fox-1 homolog 2, RRM domain, GST-SBP tag (RBFOX2, Homo sapiens, UniProt O43251-10, residues 100-194)
Technique: RNA Bind-n-Seq
Molecule type: RNA
Matrix: in vitro
Concentration: 365 nM
Setting: natural RNA segment, single round, ends assumed
Baseline: no-protein control
Direction: higher = stronger binding
Target sequence (chain): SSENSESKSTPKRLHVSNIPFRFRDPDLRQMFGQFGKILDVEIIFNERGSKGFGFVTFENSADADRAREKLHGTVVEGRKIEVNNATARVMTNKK
Under “RBNS enrichment (R)”, `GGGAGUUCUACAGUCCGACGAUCGCUUGACUGGGCGUCUUCCGCUGCAUAACACUCAAGGUGUCUGCUCUAGUCAUCCAGAAACCCACUCCCUUCUGAAGCCCCUCCUUGGGCCGGGUUGUAUCAGGAGGAUUUGGAAUUCUCGGGUGCCAA` is recorded as 0.443.
Under “RBNS enrichment (R)”, `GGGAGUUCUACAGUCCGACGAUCUGAGCACCGGAGCGCCUGGCUGCCUGCCAAGGAAGUGCAAUUGCAUAAAAACAGAAAGAACAACGCCCUGGAGCCAAUCUUCAAGAAAGGAAUUUCCAAAGGAUAAUAUUUGGAAUUCUCGGGUGCCAA` is recorded as 0.402.
`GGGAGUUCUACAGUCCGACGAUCUUCAAAGACAGCUAGCUGUCACUGGUGCUCCCCCCAAAGCGUUUCACCCCCUUCUGUGCAUCUUAGGAAUGAAAUGGUUGCUGUGUGCAGGUCAGGUUAAUGGAAGAACGUGGAAUUCUCGGGUGCCAA`: “RBNS enrichment (R)” 5.72.
For `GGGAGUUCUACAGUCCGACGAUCUUUUGGAGAACGAUUCACUUAUGAAGACACCGAUUUUCAGCACAUGAUUGAGUUAUUUAGUGAAAAUGUGGAACUAGCUGCCAGUGCCUCAGUCUUCUUGUAUAAUGCCUUGGAAUUCUCGGGUGCCAA`, “RBNS enrichment (R)” read 1.06.
Under “RBNS enrichment (R)”, `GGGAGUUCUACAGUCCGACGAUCGCACUUAUUUCCCUCCUGUCCUAGGAUUUGAUUCUUCCAGAAUGACCUUCUUAUUUAUGUAACUGGCUUUCAUUUAGAUUGUAAGUUAUGGACAUGAUUUGAGAUGUAGAUGGAAUUCUCGGGUGCCAA` is recorded as 0.383.
`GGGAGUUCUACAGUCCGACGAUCCUUGUGCUAUGCACGGGGUGUCUGAGCGGUGCCCAGGCCGUUCCACACAGACACCUCAGUGUUGGACCUGUGAUGAAAGUUUCUGAGAAAUACUUUUGUUCCAAACCAUUUGGAAUUCUCGGGUGCCAA` — result for “RBNS enrichment (R)”: 0.325.
Under “RBNS enrichment (R)”, `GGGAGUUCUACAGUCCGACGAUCAAAACAGACAUCUUUGAUUUCUGAUUAAGAAAAAGCACUCUACAUCUUUUUUUUUUAAGUUUUCUAAGUUUGUUCCUUCUGAGAGAUUAAGUAAAAAACACCUUUAAAAUUGGAAUUCUCGGGUGCCAA` is recorded as 0.415.
`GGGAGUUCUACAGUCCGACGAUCGGACUUAUUAUGUGAGUGUUUUGCCUUUAAUCCUUGGGGUUCAACAAUAAAAGAGUCUGAAAAUUGGGAGAGAAAACCUACUCUAGGAGCCUCUGGUUACACAUAUUUUAUGGAAUUCUCGGGUGCCAA`: “RBNS enrichment (R)” 0.409.
For `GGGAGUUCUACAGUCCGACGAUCUGCUCACACGGUUACCUAGGGUAGGCUGGGAGCCAUUGUGGGGUGCAGGGCCUGGCUUGUACUUGGUGUGUGCAAGGCCCAAUGGCAGCCUGCAUACCCAGCCUACUCUUUGGAAUUCUCGGGUGCCAA`, “RBNS enrichment (R)” read 0.317.

Study 4
Target: RING finger protein unkempt homolog, zinc fingers 1-6, GST-SBP tag (UNK, Homo sapiens, UniProt Q9C0B0, residues 30-357)
Technique: RNA Bind-n-Seq
Molecule type: RNA
Matrix: in vitro
Concentration: not given
Setting: RNA with constant flanks, human-mouse chimeric sites, ends assumed
Baseline: input RNA pool
Direction: higher = stronger binding
Target sequence (chain): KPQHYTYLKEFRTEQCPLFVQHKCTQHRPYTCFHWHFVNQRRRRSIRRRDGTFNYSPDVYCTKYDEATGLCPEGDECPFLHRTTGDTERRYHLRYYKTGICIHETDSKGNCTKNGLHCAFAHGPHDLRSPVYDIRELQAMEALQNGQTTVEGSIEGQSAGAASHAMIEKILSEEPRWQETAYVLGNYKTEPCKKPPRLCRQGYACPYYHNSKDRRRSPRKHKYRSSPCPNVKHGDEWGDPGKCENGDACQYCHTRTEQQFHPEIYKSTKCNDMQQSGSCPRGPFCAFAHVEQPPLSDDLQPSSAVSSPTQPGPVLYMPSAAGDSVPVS
The bound/input enrichment of `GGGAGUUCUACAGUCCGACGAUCGAGCGUCUCGCUCGAACUGGGAUCAUCGUGACCACUAGUGAGGCUGUUCUGCUUCAGCUGGUGGCUGACAAAGACCACCCGAAGUUCAAGGAAAUUCAGAACCUAAUUAAGGCGAGUGCCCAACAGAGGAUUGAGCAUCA` is reported as 0.0833 ratio.
With `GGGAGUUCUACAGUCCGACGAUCGCCACCAAUUCCAGCCAACAUGACCCUUGCUGCCUACAAAGAGAAGAUGAAGGAGCUCCCGCUGGUGUCCUUGUUCUGCUCCUGCUUCCUGGCCGAUCCCCUGAAUAAAUCAUCCUACAACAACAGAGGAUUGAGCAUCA` the bound/input enrichment was 0.432 ratio.
With `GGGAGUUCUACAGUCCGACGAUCGAUCAUGGAACCAGAAUCAGAAAUGAAAUGAGAUUACCCAGACGAGCCAAAACAGCUGCGCUACAGAAAAGUAAACUUAACCUUGCAGAGUUCCUUAAUGAAGAUACAAGUUAAGAGAGCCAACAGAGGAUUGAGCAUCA` the bound/input enrichment was 0.13 ratio.
`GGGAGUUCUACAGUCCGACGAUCAUCAAAUACUUUGGGGACAUCAUUAGUGUGGGACAGAGACUGUUGCAAGGAGCUCGGAUCUUAGGGAUUCCUGUUAUCAUAACGGAACAAUACCCCAAAGGACUUGGGAGCACGGUUCAACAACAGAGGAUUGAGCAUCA` has a bound/input enrichment of 0.225 ratio.
`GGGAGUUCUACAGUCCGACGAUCGUAAUGUUUAUUCAUUUAACUUAUUUUUAUAGCUAGAUAAAUAUUGUUAGUCUUAGACAAUAGCUCACAUUUUUUGAGAAGCAUGCCCUCCCUGUCCAUUGGGCCCAUAACAUGACCCAGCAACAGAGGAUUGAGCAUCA` gave a bound/input enrichment of 14.5 ratio.
With `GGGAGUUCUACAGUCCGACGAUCCACAGAGCAGCACCUACCUCCUCCUUCUUUCCACACCUGCAAACUCUUUUGCCUGGGCUGAAUAUUUAGUGUAAUUACAUCUCAGCUUUGAGGGCUCCUGUGGCAAAUUCCCGGAUUAAACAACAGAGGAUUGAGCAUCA` the bound/input enrichment was 0.422 ratio.
With `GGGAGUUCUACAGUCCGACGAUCAGCGUUCAGGAAUUCAUGACCUUUACAAGUCAACUGAUUGUGGAACGCUCGGGGAAAGGCAGCAGAGCUUCUGUCAAAGAACAAGAGUAUCUUUGCCAUGUCUACGUCCGGAGCGACAGUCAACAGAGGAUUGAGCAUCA` the bound/input enrichment was 0.108 ratio.
The bound/input enrichment of `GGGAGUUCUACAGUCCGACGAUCGUUGCCAGCUUCCGGUUCCGUUGGGCUCGGUUCUCUCCUGAGCUACGGUCCCUGGCACUCUCAAUCCCGGUUGGGUAAAACAUGGAUCAGGUAAUGCAGUUUGUGGAGCCCAGCCGGCAGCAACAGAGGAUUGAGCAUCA` is reported as 0.155 ratio.
